Published values from different studies.
Parts stem from different laboratories: compare values within a part only. Positions count from the first letter of the parent shown.

Block 1
Target: RNA binding protein fox-1 homolog 2, RRM domain, GST-SBP tag (RBFOX2, Homo sapiens, UniProt O43251-10, residues 100-194)
Technique: RNA Bind-n-Seq
Molecule type: RNA
Matrix: in vitro
Concentration: 365 nM
Notes: natural RNA segment, single round, ends assumed
Baseline: no-protein control
Reading: higher = stronger binding
All sequences stand within: GGGAGUUCUACAGUCCGACGAUC … UGGAAUUCUCGGGUGCCAA
Residues (chain): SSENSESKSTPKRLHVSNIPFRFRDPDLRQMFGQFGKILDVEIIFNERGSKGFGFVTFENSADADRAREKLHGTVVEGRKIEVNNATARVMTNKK
Oligonucleotide | RBNS enrichment (R)
UUGUGAUCUGUUGUAAUAUCAGUUACAGUGGCAGUAUUGAGAAUAAGAAAUAGUUUAACAGGAAAAAACGUUUAAGCACAAACAUUUUUAAGAUCUUAUGUUUUAAGUGG | 0.494
CAUUUUCAUGGCAGACCUAAGCUCAGACCCUGCCUUGUCCUGGCAAGCAUAGGUUUUCCCAGACCACAAUGCUGAUAUAUCUUAUUUAAUGCAGACUGUAUUCUUGCAGC | 0.41
UAAAUCACUGGUGAAAGUGGCAUCAUCAGAUAAUCUCAAUGGCCACUUGUUCUGGCAUUUAUAAAUAGAAAGGACUGUGAGCUGUGGGCUAUGGUCUAAUGUUCAAAGAU | 0.558
GAAACAGAUCACUGAAAUUCAAAGAAAAUGUCUCUUAAGGUUCAUGUUUGUGGGAUUUUUUUUGGGGGGGGGGGAGGUGAUUUUCCAGAACCUAAUGAAAGGACCACGUU | 0.918
AAGAUAUAGGGUAGAAAUAAGAGCUAUACUUACAAGAGUCAAUAGAUCACUGACUUCUCUUUAACUGUCCUGAGCUACAUCACGCCCACAAAUCUGUCUUUCAUACCACU | 0.308
AGUUACCCUUUUAGUUUUACUGUGUUCUGUGAAAAUUUGUAAUUGGUUGAGAAUCACUGUGGGCGUCCAUUCUUAUUCAACUAAAUCUCCACAGGUUUUUUGAGCUGGUG | 0.442
UACUUCAUCUGUUCUCAUUUGUGCCAUCUGCCGUGAUGUCGUCACUUUUAUGGCGUUAAUUUCCUGCCACUACAGAUCUUUUGAAGAUUGCUGGAAUACUGGUGUCUGUU | 0.976
CACCACCUGGGGACCCCCUUGUUGUGUCCAGGACUCCCCCUGUGUCAGUGCUCUGCUCUCACCCUGCCCAAGACUCACCUCCCUUCCCCUCUGCAGGCCGACGGCAGGAG | 0.668
UUGGGCAAAUGAAACCAUAAACUCCGACUGGCUUCUGUAGAUGCCAAAGGGCUCUUUUUCAGCUAACCCUGGGAAGGCUCUGUGGGAGGGAGGUCGGAGCCAGCUGUUUC | 0.41
UUUUCUUUCAGUUUUUUUAAUCGCAUGUCUAGUAUAUUAAGUCUCCAUAGCCCUCCUGAUGCAGUAGACAGUGCUAUGCUGUGGAUAUAAUACCAACCAGAAAUUGGCAU | 11.1
AGCCAUUUUACAUAGCACAUCAUUCCUCCUAUAGGGAUGAACUUUUUCCUGGCACGAAAAGUAGCCGCUCUGGUUGAAGCUUUGCUUAUUGUAACAGGCUUUUAUUUCCA | 0.286
CACAGUGCAUUGUUUUUCUACCUGCUUGUCUUAUUUUUAGAAUAAUUUAGAAAAACAACAAAGGCUGUUUUUCCUAAUUUUGGCAUGAACCCCUUGUUCCAAGUGAAGGC | 1.47

Block 2
Target: RING finger protein unkempt homolog, zinc fingers 1-6, GST-SBP tag (UNK, Homo sapiens, UniProt Q9C0B0, residues 30-357)
Chain of UniProt Q9C0B0 (30-357, looked up): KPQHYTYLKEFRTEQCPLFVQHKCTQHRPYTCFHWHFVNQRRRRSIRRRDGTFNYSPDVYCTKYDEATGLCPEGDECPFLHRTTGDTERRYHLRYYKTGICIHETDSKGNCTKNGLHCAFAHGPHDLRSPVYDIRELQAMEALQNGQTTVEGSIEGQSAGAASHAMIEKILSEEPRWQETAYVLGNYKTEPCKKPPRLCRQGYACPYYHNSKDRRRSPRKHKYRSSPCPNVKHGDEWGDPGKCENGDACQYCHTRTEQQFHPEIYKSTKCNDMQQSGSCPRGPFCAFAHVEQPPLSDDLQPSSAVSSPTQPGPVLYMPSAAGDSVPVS
Technique: RNA Bind-n-Seq
Molecule type: RNA
Matrix: in vitro
Concentration: not given
Notes: RNA with constant flanks, human and mouse sites, ends assumed
Baseline: input RNA pool
Reading: higher = stronger binding
All sequences stand within: GGGAGUUCUACAGUCCGACGAUC … CAACAGAGGAUUGAGCAUCA
Oligonucleotide | bound/input enrichment [ratio]
GAGCGGGGCUGUCACCUGGAGAUCACGGAGGGAAGUUCAUCCAUGAGCUCGGAUUUCCCACAUUACAACUUCAGGAUGCCUAAUAUUGGAUUCCAGAAUCUGCCUCUCAACAUAUAUAUU | 0.121
UUAAUGUUUUCGAACUGCUUUGAAUACAACCCUCGUAACACAAGUGAAGCAAAAGCUGGAACUAGGCUUCAAGCAUUUUUUCAUAUUCAGGCUCAAAAGCUUGGACUCCACGUCACACCC | 0.251
UUGUUAAAAUGCUAUUUCCUUUAUUACCUUGGAAACUGACUCAGCCUCUUGUUGCUCCUAAUUAGGGUUUAAGGCUCUUGUAAGUUGCAGAUAAAAGGAUUCAUUUUAACAAUAGAAGGA | 0.451
GAAUCCAGUGAUUUGGUACAUGUUAAAUGGGAAUUAAAAAUCCAAAGACCCUGUAAUGAAUAGUAAAGAUGAUGAUUUAUGUUGUAUGAGGAACCAAACUAUUGUAAUUUUGUACCAUAC | 0.743
CUUGUGUGUGGACACAUUUUCCUUUUUGGUUGCUCUGUCCUAUGCUUAGUGCUCUCCUAGCUUUUCUCCAAGCUCCCUGCUUUCUGGCUCUCUCAGUGUCUCCCUCUCUCUCUCUCUCUC | 0.915
GGAAUAUUAGGACUGAGGCAACACCUAGGGACACCAAGUGAUGAAGAUAAUGAUUCCUCUUUUAGUGAUUGUCUUUCUUCUCCUUCAUCUAGUCUGCAUUUUGGAGAUUCUGAUACUGUG | 0.295
AACAUUUCUACUUUACCAGAGAGUCUUUUAUCAAGUCUUGUGAAACUGAAUAGUUUGACCUUAGCUAGAAAUUGCUUCCAGUUGUAUCCAGUGGGUGGUCCAUCUCAGUUUUCUACCAUC | 0.59
GAACAUAAAGCUGAGAAAGUCCCAGCAGUAGCCAACUACAUUAUGAAAAUACACAAUUUUACUAGCAAAUGCCUCUACUGUAAUCGCUAUUUACCCACAGAUACUCUGCUCAACCAUAUG | 5.33
GUGUUGAGUUGGCAUUGUACAGAAAUUAACAGCCAUAUUGGUCUAGAAACGUUAAACUUAAUUUUUUUCCAUUUGUACAGGGGUAACGCACUGUAUUAAAUAUGUAAGGUCUUAUCUACA | 3.1
CUUGAAGACAGCUGUACUGUUGGAGAGAUCAAACAGAUUCUAGAAAAUGAGCUUCAGAUACCUGUGCCUAAAAUGCUGUUAAAAGGCUGGAAGACUGGAGACGUGGAAGACAGUACGGUC | 0.149
UGGGCGGUUUGUGCUUUCAUCACAUUUGUUAACAGGUCAAAAUGCAGAUCUUCGUGAAGACCCUGACCGGCAAGACCAUCACCCUAGAGGUGGAGCCCAGUGACACCAUCGAGAACGUGA | 0.102

Block 3
Target: Centromere-binding protein 1, full length, N-terminal tag (CBF1, Saccharomyces cerevisiae, UniProt P17106, residues 1-351)
Chain of UniProt P17106 (whole entry, looked up): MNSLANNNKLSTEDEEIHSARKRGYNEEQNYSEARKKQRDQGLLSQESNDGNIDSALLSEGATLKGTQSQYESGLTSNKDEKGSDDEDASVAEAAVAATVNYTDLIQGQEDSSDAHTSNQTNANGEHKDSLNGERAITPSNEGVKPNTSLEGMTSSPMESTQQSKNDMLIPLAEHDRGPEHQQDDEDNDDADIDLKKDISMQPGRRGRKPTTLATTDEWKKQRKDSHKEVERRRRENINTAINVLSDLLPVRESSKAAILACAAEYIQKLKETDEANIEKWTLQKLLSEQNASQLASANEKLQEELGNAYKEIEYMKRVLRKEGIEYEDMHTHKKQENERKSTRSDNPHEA
Technique: protein-binding microarray
Molecule type: double-stranded DNA, one strand shown
Matrix: in vitro
Concentration: 0.8 µM
Notes: whole 60-bp probe, no competitor
Reading: higher = stronger binding
All sequences stand within: … GTCTTGATTCGCTTGACGCTGCTG
Oligonucleotide | fluorescence intensity
GAAAAGTGGCAGTGTCACCTAAAATATTAGTACTAG | 498 a.u.
GAAAAAACGAAAAGGCACGCATGGCTTGCGAAATAG | 510 a.u.
CTAAGCACAATATAGCACGTCGAAACAGTGCTATTC | 493 a.u.
GAATTTTTAATTATCCACGAGATATTCGAACCTTAG | 608 a.u.
GAAATAGGCAGTCTCCACGCGATGCCGCCACTTTAG | 523 a.u.
CTATCTATAAAATGAATCATGAGGATTAGGCCGTTC | 530 a.u.
GAAGGAATCTGCGTTACTCACATGTGCAGATATTAG | 1550 a.u.
CTAGTCAACAAGACCCACGTTGGTCAATTGAAATTC | 494 a.u.
GAACCAATATCAAATCTGGTGGTAATCCCGATGTAG | 511 a.u.
CTAGGCGCACACAATCACGTTACTTGAATCTCATTC | 2230 a.u.
CTACCAATTCCACGGCACATGTAGATCTGCGAGTTC | 843 a.u.
GAATTATTAGCTCACGTGTATACATGTATATAGTAG | 6850 a.u.
CTAGAGCAAGAACATCATCAGAAATACCAATGTTTC | 504 a.u.
CTAACAGTATTTCATCACGACAAGCATATCCAATTC | 604 a.u.
GAATAGGAACGACGTGGTGTAGTGAATTACTTTTAG | 511 a.u.
CTACATCACTATGCACTGATGACGTCACTGTCATTC | 529 a.u.
TGTACGAAGCTATCTACCGTGACTATAGTAGTTAGG | 593 a.u.
CTAAGTTCTGCTCATCTCATCACCAGTAAAAAATTC | 558 a.u.
CCTAACTACTATAGTACTCAGGTATAGCTTCGTACA | 494 a.u.
CCTAACTACTATAGAAACGTGATATAGCTTCGTACA | 1400 a.u.

Block 4
Target: Histone acetyltransferase KAT6A, both winged helices, GST fusion (KAT6A, Homo sapiens, UniProt Q92794, residues 1-181)
Technique: protein binding microarray
Molecule type: double-stranded DNA, one strand shown
Matrix: in vitro
Concentration: not given
Notes: 8-mer, flanks averaged, mean of 2 arrays, mostly near background
Baseline: not given
Reading: higher = stronger binding
Construct (chain): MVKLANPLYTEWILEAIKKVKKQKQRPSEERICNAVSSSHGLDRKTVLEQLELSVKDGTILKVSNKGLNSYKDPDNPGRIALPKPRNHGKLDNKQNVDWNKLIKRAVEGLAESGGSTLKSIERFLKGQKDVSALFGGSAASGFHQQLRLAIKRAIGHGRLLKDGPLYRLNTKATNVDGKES
Oligonucleotide | E-score
ATCGAAGA | 0.0837
GTACAAAA | -0.0167
CCCGGAAA | 0.154
CTCCGCGC | 0.333
ACGGGAGG | 0.145
CAAGAACA | -0.141
CACGTTAA | -0.113
AACCTTTG | -0.046
ATCACGGA | 0.164
GAGGCGTA | 0.079
ACTGTTCT | -0.129
AAAACTGG | -0.108
CAGAGAAG | -0.0835
CGGAGACA | 0.0941
GAATCCTC | -0.212
CCATAGTC | -0.147
TGGCCAAA | -0.187
AATAGCTA | -0.0198
TGAGCTCA | -0.068
GTTTTGTA | -0.116
GGCAGTAA | 0.031
AAGCAGTG | -0.105
AACGACCG | 0.0427
ACTTCCAA | -0.29
AATACTCA | -0.0902

Block 5
Target: CCNB1, cyclin fold, Cln2 fusion (human)
Technique: yeast growth competition, sequencing
Matrix: yeast
Notes: strong parent motif
Baseline: not given
Reading: higher = stronger binding
Parent: E2F1 docking peptide (human); PPVKRRLDFETDH
Change | normalised enrichment score
E10P | 4.2
K4R | 5.41
V3A | 2.21
T11Q | 5.13
R5Y | 1.01
R5E | 0.237
D12R | 4.41
K4M | 4.99
D8H | 4.35
E10M | 4
L7K | 0.444
T11W | 4.89
P2C | 5.28
R6T | 2.52
V3I | 4.08
F9R | 0.429
T11F | 5.29
V3C | 3.56
F9P | 0.118
T11C | 5.12
F9I | 0.781
T11I | 4.91
R5A | 1.79
R5D | 0.294
P2F | 3.6
